Assay results gathered from unrelated publications.
Each line is one published result; not all experiments were run side by side. ± marks the error that the study gave. Where no end group is shown, it is not given here. No end group written: not given here. The star is where a group is joined.
Gnao1: Gnao1, AlexaFluor 532 label (Rattus norvegicus, UniProt P59215)
Chain of UniProt P59215 (whole entry, looked up): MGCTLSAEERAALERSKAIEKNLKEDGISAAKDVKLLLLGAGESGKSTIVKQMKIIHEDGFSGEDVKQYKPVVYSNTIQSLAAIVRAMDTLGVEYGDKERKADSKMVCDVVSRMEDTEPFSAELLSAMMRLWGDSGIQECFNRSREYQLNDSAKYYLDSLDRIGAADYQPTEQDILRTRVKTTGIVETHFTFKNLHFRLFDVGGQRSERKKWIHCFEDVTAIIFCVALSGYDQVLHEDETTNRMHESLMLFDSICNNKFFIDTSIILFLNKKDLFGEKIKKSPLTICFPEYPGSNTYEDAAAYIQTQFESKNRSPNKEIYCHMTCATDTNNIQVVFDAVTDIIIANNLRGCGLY
B1: Sas-4 606-901 (Drosophila melanogaster, UniProt Q9VI72); sequence looked up; chain RNIARLAPKVLPSATMSDILDENGRRTQSLDGTAGKPAKQREAQNRRQSSGSAQVRSRSRSLSRNKKTPYALDESYASSSSVESEEVQPPVTAPKAATPPPAANSSSDFKREITNADGSKDIWYPNGNLKKISADGMNLRMLYFNKDIKETNIREGTVKYYYAETNTWHTSYLDGLEILEFPNGQTEHRRKDGTVEIHFPNNSIKIVDPSDTEKLEEWRYADGTHLVQLRNGDKILNLPNGQKEIHTKLNKRREYPDGTVKLVYPDGSQETRYSNGRVRLKDKDGKLIMDTDYAKY
B2: GRIK5 amino terminal domain 20-406 (Rattus norvegicus, UniProt Q63273); N-linked glycans; chain VLSSLRMAAILDDQTVCGRGERLALALAREQINGIIEVPAKARVEVDIFELQRDSQYETTDTMCQILPKGVVSVLGPSSSPASASTVSHICGEKEIPHIKVGPEETPRLQYLRFASVSLYPSNEDVSLAVSRILKSFNYPSASLICAKAECLLRLEELVRGFLISKETLSVRMLDDSRDPTPLLKEIRDDKVSTIIIDANASISHLVLRKASELGMTSAFYKYILTTMDFPILHLDGIVEDSSNILGFSMFNTSHPFYPEFVRSLNMSWRENCEASTYPGPALSAALMFDAVHVVVSAVRELNRSQEIGVKPLACTSANIWPHGTSLMNYLRMVEYDGLTGRVEFNSKGQRTNYTLRILEKSRQGHREIGVWYSNRTLAMNATTLDI
B3: TFAM 50-118 (Homo sapiens, UniProt Q00059-1); sequence looked up; chain PKKPVSSYLRFSKEQLPIFKAQNPDAKTTELIRRIAQRWRELPDSKKKIYQDAYRAEWQVYKEEISRFK
B4: ftsZ (Bacillus subtilis, UniProt P17865); sequence looked up; chain MLEFETNIDGLASIKVIGVGGGGNNAVNRMIENEVQGVEYIAVNTDAQALNLSKAEVKMQIGAKLTRGLGAGANPEVGKKAAEESKEQIEEALKGADMVFVTAGMGGGTGTGAAPVIAQIAKDLGALTVGVVTRPFTFEGRKRQLQAAGGISAMKEAVDTLIVIPNDRILEIVDKNTPMLEAFREADNVLRQGVQGISDLIATPGLINLDFADVKTIMSNKGSALMGIGIATGENRAAEAAKKAISSPLLEAAIDGAQGVLMNITGGTNLSLYEVQEAADIVASASDQDVNMIFGSVINENLKDEIVVTVIATGFIEQEKDVTKPQRPSLNQSIKTHNQSVPKREPKREEPQQQNTVSRHTSQPADDTLDIPTFLRNRNKRG
B5: MIF4GD (Homo sapiens, UniProt A9UHW6); sequence looked up; chain MGEPSREEYKIQSFDAETQQLLKTALKDPGAVDLEKVANVIVDHSLQDCVFSKEAGRMCYAIIQAESKQAGQSVFRRGLLNRLQQEYQAREQLRARSLQGWVCYVTFICNIFDYLRVNNMPMMALVNPVYDCLFRLAQPDSLSKEEEVDCLVLQLHRVGEQLEKMNGQRMDELFVLIRDGFLLPTGLSSLAQLLLLEIIEFRAAGWKTTPAAHKYYYSEVSD
B6: UGT1A9 (Homo sapiens, UniProt O60656); chain GKLLVVPMDGSHWFTMRSVVEKLILRGHEVVVVMPEVSWQLGRSLNCTVKTYSTSYTLEDLDREFKAFAHAQWKAQVRSIYSLLMGSYNDIFDLFFSNCRSLFKDKKLVEYLKESSFDAVFLDPFDNCGLIVAKYFSLPSVVFARGILCHYLEEGAQCPAPLSYVPRILLGFSDAMTFKERVRNHIMHLEEHLLCHRFFKNALEIASEILQTPVTEYDLYSHTSIWLLRTDFVLDYPKPVMPNMIFIGGINCHQGKPLPMEFEAYINASGEHGIVVFSLGSMVSEIPEKKAMAIADALGKIPQTVLWRYTGTRPSNLANNTILVKWLPQNDLLGHPMTRAFITHAGSHGVYESICNGVPMVMMPLFGDQMDNAKRMETKGAGVTLNVLEMTSEDLENALKAVINDKSYKENIMRLSSLHKDRPVEPLDLAVFWVEFVMRHKGAPHLRPAAHDLTWYQYHSLDVIGFLLAVVLTVAFITFKCCAYGYRKCLGKKGRVKKAHKSKTH
B7: Scn2a 1080-1203 (UniProt P04775); CK2-phosphorylated; sequence looked up; chain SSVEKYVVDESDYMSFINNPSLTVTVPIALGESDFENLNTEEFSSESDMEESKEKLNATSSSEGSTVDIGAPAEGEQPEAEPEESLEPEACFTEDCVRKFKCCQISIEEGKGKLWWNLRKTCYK
B8: IL34 19-242 (Homo sapiens, UniProt Q6ZMJ4); sequence looked up; chain LGNEPLEMWPLTQNEECTVTGFLRDKLQYRSRLQYMKHYFPINYKISVPYEGVFRIANVTRLQRAQVSERELRYLWVLVSLSATESVQDVLLEGHPSWKYLQEVETLLLNVQQGLTDVEVSPKVESVLSLLNAPGPNLKLVRPKALLDNCFRVMELLYCSCCKQSSVLNWQDCEVPSPQSCSPEPSLQYAATQLYPPPPWSPSSPPHSTGSVRPVRAQGEGLLP
B9: RGS7 RH domain 333-448 (UniProt P49802); sequence looked up; chain GMDEALKDPVGREQFLKFLESEFSSENLRFWLAVEDLKKRPIKEVPSRVQEIWQEFLAPGAPSAINLDSKSYDKTTQNVKEPGRYTFEDAQEHIYKLMKSDSYPRFIRSSAYQELL
B10: TJP1 PDZ3-SH3-GuK; chain SMKLVKFRKGDSVGLRLAGGNDVGIFVAGVLEDSPAAKEGLEEGDQILRVNNVDFTNIIREEAVLFLLDLPKGEEVTILAQKKKDVYRRIVESDVGDSFYIRTHFEYEKESPYGLSFNKGEVFRVVDTLYNGKLGSWLAIRIGKNHKEVERGIIPNKNRAEQLASVQYTLPKTAGGDRADFWRFRGLRSSKRNLRKSREDLSAQPVQTKFPAYERVVLREAGFLRPVTIFGPIADVAREKLAREEPDIYQIAKSEPRDAGTDQRSSGIIRLHTIKQIIDQDKHALLDVTPNAVDRLNYAQWYPIVVFLNPDSKQGVKTMRMRLCPESRKSARKLYERSHKLRKNNHHLFTTTINLNSMN
B11: MAP2K5 PB1 domain 16-130 (Homo sapiens, UniProt Q13163); iodoacetamidofluorescein label; chain VLVIRIKIPNSGAVDWTVHSGPQLLFRDVLDVIGQVLPEATTTAFEYEDEDGDRITVRSDEEMKAMLSYYYSTVMEQQVNGQLIEPLQIFPRACKPPGERNIHGLKVNTRAGPSQ
B12: RGS8 GST fusion (UniProt P49804); sequence looked up; chain MAALLMPRRNKGMRTRLGCLSHKSDSCSDFTAILPDKPNRALKRLSTEEATRWADSFDVLLSHKYGVAAFRAFLKTEFSEENLEFWLACEEFKKTRSTAKLVTKAHRIFEEFVDVQAPREVNIDFQTREATRKNMQEPSLTCFDQAQGKVHSLMEKDSYPRFLRSKMYLDLLSQSQRRLS
B13: TIMP1 mature (Homo sapiens, UniProt P01033); sequence looked up; chain CTCVPPHPQTAFCNSDLVIRAKFVGTPEVNQTTLYQRYEIKMTKMYKGFQALGDAADIRFVYTPAMESVCGYFHRSHNRSEEFLIAGKLQDGLLHITTCSFVAPWNSLSLAQRRGFTKTYTVGCEECTVFPCLSIPCKLQSGTHCLWTDQLLQGSEKGFQSRHLACLPREPGLCTWQSLRSQIA
Chain of UniProt P32776 (whole entry, unmodified, looked up): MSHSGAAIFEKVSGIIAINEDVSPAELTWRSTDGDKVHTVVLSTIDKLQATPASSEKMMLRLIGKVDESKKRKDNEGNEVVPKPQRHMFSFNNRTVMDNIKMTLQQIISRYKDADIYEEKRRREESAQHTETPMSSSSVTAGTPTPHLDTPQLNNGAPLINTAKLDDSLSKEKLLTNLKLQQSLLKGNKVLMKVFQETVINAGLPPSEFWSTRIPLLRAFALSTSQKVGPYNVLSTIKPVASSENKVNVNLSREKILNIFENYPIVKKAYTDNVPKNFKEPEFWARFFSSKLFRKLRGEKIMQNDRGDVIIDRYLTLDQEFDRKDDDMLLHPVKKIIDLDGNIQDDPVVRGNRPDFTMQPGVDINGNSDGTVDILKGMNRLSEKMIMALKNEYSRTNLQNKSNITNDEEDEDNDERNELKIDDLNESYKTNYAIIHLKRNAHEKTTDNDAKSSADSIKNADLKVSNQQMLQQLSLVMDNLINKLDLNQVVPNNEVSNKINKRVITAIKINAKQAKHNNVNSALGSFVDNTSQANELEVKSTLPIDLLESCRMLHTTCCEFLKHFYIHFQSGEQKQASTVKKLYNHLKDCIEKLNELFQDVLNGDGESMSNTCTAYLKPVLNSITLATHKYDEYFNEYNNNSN
Chain of UniProt P20936 (whole entry, looked up): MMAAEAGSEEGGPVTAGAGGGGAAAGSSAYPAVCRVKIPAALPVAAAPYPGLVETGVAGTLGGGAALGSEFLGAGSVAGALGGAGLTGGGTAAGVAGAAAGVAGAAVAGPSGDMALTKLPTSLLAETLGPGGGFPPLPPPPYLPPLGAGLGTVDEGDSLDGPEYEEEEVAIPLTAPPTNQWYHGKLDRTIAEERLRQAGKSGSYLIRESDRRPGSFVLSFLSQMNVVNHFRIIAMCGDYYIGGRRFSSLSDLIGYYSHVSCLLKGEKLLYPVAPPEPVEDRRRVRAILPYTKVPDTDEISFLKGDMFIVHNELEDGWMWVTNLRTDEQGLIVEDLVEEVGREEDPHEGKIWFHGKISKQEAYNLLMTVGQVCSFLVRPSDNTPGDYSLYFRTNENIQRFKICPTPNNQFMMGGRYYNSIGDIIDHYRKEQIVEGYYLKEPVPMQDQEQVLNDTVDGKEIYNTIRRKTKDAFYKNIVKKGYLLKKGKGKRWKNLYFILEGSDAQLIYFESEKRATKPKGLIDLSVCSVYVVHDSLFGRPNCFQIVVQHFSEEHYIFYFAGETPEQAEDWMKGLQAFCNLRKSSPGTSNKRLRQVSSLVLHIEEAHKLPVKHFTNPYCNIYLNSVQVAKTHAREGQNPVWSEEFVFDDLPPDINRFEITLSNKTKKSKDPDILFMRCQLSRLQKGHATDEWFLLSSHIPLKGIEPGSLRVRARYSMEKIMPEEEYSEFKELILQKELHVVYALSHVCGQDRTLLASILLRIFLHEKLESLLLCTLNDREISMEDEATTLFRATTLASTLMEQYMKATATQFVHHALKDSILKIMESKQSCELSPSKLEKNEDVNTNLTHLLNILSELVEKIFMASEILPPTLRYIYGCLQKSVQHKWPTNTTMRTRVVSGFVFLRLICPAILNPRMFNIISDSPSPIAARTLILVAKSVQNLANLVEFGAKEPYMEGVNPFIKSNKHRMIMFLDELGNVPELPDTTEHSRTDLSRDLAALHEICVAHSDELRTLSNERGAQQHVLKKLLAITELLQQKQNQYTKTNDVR
Chain of UniProt Q9BTC0 (whole entry, looked up): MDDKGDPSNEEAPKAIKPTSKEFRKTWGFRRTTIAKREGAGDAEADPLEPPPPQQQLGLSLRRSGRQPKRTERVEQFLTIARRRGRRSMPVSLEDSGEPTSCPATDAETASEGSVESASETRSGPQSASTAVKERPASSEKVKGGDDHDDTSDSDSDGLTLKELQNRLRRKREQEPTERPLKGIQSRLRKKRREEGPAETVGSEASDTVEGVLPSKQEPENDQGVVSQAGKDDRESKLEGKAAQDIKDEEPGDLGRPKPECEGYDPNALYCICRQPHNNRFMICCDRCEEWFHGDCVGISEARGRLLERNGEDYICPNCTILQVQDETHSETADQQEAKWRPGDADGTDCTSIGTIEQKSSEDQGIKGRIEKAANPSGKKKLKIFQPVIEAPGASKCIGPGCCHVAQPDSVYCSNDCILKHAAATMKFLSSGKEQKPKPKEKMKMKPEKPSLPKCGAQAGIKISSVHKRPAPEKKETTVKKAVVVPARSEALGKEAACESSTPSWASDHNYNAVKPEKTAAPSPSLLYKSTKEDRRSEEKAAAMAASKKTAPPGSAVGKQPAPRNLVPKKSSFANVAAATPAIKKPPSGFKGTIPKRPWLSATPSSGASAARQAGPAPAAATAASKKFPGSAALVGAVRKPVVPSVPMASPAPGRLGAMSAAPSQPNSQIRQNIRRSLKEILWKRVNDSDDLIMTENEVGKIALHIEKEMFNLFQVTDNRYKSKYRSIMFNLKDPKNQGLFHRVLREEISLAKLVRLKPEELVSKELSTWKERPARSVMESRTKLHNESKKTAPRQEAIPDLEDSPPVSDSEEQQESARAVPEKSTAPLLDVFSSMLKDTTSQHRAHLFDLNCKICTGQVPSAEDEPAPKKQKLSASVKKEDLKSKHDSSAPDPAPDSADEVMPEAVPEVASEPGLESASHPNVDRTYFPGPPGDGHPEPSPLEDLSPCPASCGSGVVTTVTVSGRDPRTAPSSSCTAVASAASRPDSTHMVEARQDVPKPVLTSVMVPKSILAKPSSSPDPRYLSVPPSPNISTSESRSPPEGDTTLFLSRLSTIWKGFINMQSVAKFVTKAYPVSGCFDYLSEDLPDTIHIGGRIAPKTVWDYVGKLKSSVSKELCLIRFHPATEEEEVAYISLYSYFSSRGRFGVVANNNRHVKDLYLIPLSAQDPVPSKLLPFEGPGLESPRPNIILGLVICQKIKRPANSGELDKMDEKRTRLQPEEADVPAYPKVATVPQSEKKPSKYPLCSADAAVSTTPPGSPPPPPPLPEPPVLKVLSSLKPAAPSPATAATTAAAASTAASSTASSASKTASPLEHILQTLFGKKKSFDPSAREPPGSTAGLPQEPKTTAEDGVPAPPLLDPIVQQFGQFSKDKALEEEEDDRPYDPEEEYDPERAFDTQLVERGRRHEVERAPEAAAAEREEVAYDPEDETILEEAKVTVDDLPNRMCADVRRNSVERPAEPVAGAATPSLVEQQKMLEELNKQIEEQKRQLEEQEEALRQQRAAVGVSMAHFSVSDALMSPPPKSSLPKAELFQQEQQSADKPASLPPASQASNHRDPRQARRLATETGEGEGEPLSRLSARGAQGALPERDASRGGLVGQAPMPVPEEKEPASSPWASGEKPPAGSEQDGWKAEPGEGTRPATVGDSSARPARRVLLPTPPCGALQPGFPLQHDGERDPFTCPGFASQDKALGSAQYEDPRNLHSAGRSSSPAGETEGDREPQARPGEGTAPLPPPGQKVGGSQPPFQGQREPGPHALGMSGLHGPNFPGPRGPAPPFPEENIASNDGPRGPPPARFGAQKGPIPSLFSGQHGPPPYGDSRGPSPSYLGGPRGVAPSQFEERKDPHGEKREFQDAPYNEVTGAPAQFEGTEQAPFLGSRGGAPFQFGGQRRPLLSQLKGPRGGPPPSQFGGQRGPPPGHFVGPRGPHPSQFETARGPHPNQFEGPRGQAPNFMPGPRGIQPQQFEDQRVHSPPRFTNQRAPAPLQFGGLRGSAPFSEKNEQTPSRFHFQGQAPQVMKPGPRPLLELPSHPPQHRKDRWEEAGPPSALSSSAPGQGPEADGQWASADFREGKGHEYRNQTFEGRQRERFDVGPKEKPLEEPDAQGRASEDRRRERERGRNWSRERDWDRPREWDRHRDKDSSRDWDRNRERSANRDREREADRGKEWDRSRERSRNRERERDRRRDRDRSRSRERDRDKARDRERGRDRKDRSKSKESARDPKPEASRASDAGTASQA
Chain of UniProt Q03392 (whole entry, looked up): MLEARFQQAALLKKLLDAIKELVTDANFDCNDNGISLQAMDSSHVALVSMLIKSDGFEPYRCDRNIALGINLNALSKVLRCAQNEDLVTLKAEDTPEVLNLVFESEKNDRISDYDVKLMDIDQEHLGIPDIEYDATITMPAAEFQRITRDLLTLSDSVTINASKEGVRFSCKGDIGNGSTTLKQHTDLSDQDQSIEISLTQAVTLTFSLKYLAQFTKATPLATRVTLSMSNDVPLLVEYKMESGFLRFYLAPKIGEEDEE
Chain of UniProt P54166 (whole entry, looked up): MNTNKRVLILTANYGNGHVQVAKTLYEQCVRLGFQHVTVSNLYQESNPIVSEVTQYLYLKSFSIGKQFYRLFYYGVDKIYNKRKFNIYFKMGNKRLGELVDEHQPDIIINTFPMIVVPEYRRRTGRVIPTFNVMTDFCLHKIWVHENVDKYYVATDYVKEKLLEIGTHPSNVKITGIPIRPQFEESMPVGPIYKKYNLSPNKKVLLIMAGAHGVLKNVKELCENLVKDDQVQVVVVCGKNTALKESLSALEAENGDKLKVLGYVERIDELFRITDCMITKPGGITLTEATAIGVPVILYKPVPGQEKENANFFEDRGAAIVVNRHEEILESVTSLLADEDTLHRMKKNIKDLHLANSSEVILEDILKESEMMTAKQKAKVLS
Chain of UniProt P04631 (whole entry, looked up): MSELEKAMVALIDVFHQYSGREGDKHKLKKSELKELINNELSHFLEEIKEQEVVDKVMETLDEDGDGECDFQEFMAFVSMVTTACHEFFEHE

Molecule	target or system	assay	test system	conditions	endpoint	result
B1 (Sas-4 606-901)	ana2 S38A, Plk4 phosphorylated (Drosophila melanogaster, UniProt Q9XZ31)	BLI	–	approximate, prephosphorylated, single experiment	Kd	0.028 µM
F5 activated FVa (Homo sapiens, UniProt P12259)	beta2-glycoprotein I/3B7 antibody (Homo sapiens/Mus musculus)	ELISA	–	–	Kd	0.046 µM
B2	Grik2 amino terminal domain 32-420 F58A/G215N/M217T, N-linked glycans (Rattus norvegicus, UniProt P42260)	AUC	–	pH 7.5, 20 °C, NaCl 200 mM, sedimentation velocity, monomer-dimer model	Kd	0.109 µM
SKTRGKAKVTGRWK (TNNT2 275-288 (Homo sapiens, UniProt P45379-6); sequence looked up)	TPM1 (Oryctolagus cuniculus, UniProt P58772)	SPR	peptide	pH 7.0, KCl 0.1 M	Kd	6.53 µM
LIYWAST	–	–	peptide, human polyclonal IgM RF STR	concentration not given, 5 µg/mL mAb II-481 coated, with: RF at 50% max binding concentration	inhibition	8%
B3 (TFAM 50-118)	TP53 1-93, AlexaFluor 546 label (UniProt P04637)	fluorescence polarisation	–	pH 7.4, 37 °C, NaCl 150 mM	Kd	14 µM
B4 (ftsZ)	UgtP (Bacillus subtilis, UniProt P54166)	BLI	–	pH 8.0, 30 °C, NaCl 100 mM, without UDP-glc	Kd	0.038 µM
B5 (MIF4GD)	SLBP, phosphorylated, multiple sites (Homo sapiens, UniProt Q14493)	SPR	–	pH 7.4, 25 °C, NaCl 150 mM	Kd	3.75 ± 1.8 µM
{TAMRA}-TRTKIDWNKILS-NH2 (CAPZA1 residues 265-276; SMILES CC[C@H](C)[C@H](NC(=O)[C@H](CCCCN)NC(=O)[C@H](CC(N)=O)NC(=O)[C@H](Cc1c[nH]c2ccccc12)NC(=O)[C@H](CC(=O)O)NC(=O)[C@@H](NC(=O)[C@H](CCCCN)NC(=O)[C@@H](NC(=O)[C@H](CCCNC(=N)N)NC(=O)[C@@H](NC(=O)c1ccc(-c2c3ccc(=[N+](C)C)cc-3oc3cc(N(C)C)ccc23)c(C(=O)[O-])c1)[C@@H](C)O)[C@@H](C)O)[C@@H](C)CC)C(=O)N[C@@H](CC(C)C)C(=O)N[C@@H](CO)C(N)=O; N-terminal TAMRA; C-terminal amide; TAMRA = 5-carboxytetramethylrhodamine, CN(C)c1ccc2c(-c3ccc(C(=O)*)cc3C(=O)[O-])c3ccc(=[N+](C)C)cc-3oc2c1)	S100b (Rattus norvegicus, UniProt P04631)	fluorescence polarisation	peptide	37 °C, with: CaCl2 10 mM	Kd	1.19 ± 0.65 µM
WKLGFFKRKYEKM (ITGA2 cytoplasmic peptide 1154-1166 (x); EDANS label)	RASA1 714-1047 (Homo sapiens, UniProt P20936)	fluorescence polarisation	peptide	with: EDANS peptide 5 µM	Kd	6 µM
PGYPNGLLSGDEDFSSIADMDFSALLSQISS (RELA 521-551 L523Y (Homo sapiens, UniProt Q04206); sequence looked up)	TFB1 1-115 (Saccharomyces cerevisiae, UniProt P32776)	ITC	peptide	pH 7.4, 25 °C	Kd	15 ± 3 µM
B6 (UGT1A9)	COc1cc2c(=O)c(-c3ccccc3)coc2cc1O	steady-state kinetics	–	pH 7.4, 37 °C	Vmax/Km	371 µL/min/mg
ARTK(Me3)QTARKSTG (histone H3 2-13 (UniProt P68431); K4me3; Me3 = trimethyl-lysine; sequence looked up)	DIDO1 266-325 (Homo sapiens, UniProt Q9BTC0)	intrinsic tryptophan fluorescence titration	peptide	pH 6.0, 25 °C	Kd	7.3 µM
YFCHQYL	–	–	peptide, human polyclonal IgM RF STR	concentration not given, 5 µg/mL mAb II-481 coated, with: RF at 50% max binding concentration	inhibition	0%
B7 (Scn2a 1080-1203)	Ank3 1-981 (Rattus norvegicus, UniProt O70511)	SPR	–	pH 7.4, 25 °C, NaCl 150 mM	Kd	0.0009 µM
B8 (IL34 19-242)	CSF1R Fc fusion D1-D5 20-512 (Homo sapiens, UniProt P07333)	SPR	–	pH 7.4, NaCl 0.15 M	Kd	0.0081 µM
RKQLATKAARK(Ac)S (histone H3 18-29 (UniProt P68431); acetylated K27; sequence looked up)	MLLT1 1-148 (Homo sapiens, UniProt Q03111)	ITC	peptide	pH 7.5, 15 °C, NaCl 500 mM	Kd	30.5 µM
EDGGSAWYGAMKALYG (designed peptide F1A)	CIB1 (Homo sapiens, UniProt Q99828)	ITC	peptide	25 °C, with: CaCl2 0.1 mM	Kd	2.65 µM
B9 (RGS7 RH domain 333-448)	Gnao1	flow cytometry	–	with: GDP-AlF4-	Kd	0.063 µM
DGGTAENLSRRLKVTGDLFDIMSGQT (BECN1 105-130 M109A (Homo sapiens, UniProt Q14457); sequence looked up)	BCL2 1-218 (Homo sapiens, UniProt P10415)	ITC	peptide	pH 7.5, 25 °C, NaCl 150 mM, independent binding model	Kd	14.5 ± 2.3 µM
B10 (TJP1 PDZ3-SH3-GuK)	OCLN 383-522 S408A, fluorescent label (Homo sapiens, UniProt Q16625)	MST	–	–	Kd	3 ± 1.1 µM
ARTKQTARKSTG (Histone H3.1 2-13 (Homo sapiens, UniProt P68431))	EP300 1287-1663 Y1467F (Homo sapiens, UniProt Q09472)	tryptophan fluorescence titration	peptide	two-site model	Kd	38 µM
B11 (MAP2K5 PB1 domain 16-130)	MAPK1 1-360 (Homo sapiens, UniProt P28482)	fluorescence polarisation	–	pH 8.0, NaCl 100 mM	Kd	> 100 µM
B12 (RGS8 GST fusion)	Gnao1	flow cytometry	–	pH 8.0, with: GDP-AlF4-	Kd	0.024 µM
Ac-KSKQTTFPAYNPPLYNTVSE-NH2 (spd1 49-68 (Schizosaccharomyces pombe, UniProt Q10585); N-acetyl, C-amide)	pcn1 1-260 (Schizosaccharomyces pombe, UniProt Q03392)	NMR titration	peptide	pH 7.4, NaCl 100 mM	Kd	3400 ± 1100 µM
B13 (TIMP1 mature)	MMP9 proenzyme, full length E402A (Homo sapiens, UniProt P14780)	SPR	–	pH 7.4	Kd	0.01 µM

Some of these lines once more:
Molecule	target or system	assay	test system	conditions	endpoint	result
SKTRGKAKVTGRWK (TNNT2 275-288 (Homo sapiens, UniProt P45379-6); sequence looked up)	TPM1 (Oryctolagus cuniculus, UniProt P58772)	SPR	peptide	pH 7.0, KCl 0.1 M	Kd	6.53 µM
B13 (TIMP1 mature)	MMP9 proenzyme, full length E402A (Homo sapiens, UniProt P14780)	SPR	–	pH 7.4	Kd	0.01 µM
B1 (Sas-4 606-901)	ana2 S38A, Plk4 phosphorylated (Drosophila melanogaster, UniProt Q9XZ31)	BLI	–	approximate, prephosphorylated, single experiment	Kd	0.028 µM
B2	Grik2 amino terminal domain 32-420 F58A/G215N/M217T, N-linked glycans (Rattus norvegicus, UniProt P42260)	AUC	–	pH 7.5, 20 °C, NaCl 200 mM, sedimentation velocity, monomer-dimer model	Kd	0.109 µM
